Measured values pooled from the literature.
Lines come from different studies, so protocols differ. ± gives the spread as reported.

`COc1ccc(OC(=O)NC2CCCCC2)cc1-c1ccccc1` has a half-life of 1.3 ± 0.0667 h (10 mM borate buffer; pH 9.0, 37 °C, chemical stability).
The half-life of `C[N+]1=C(C=CC2=C(OC(=O)CCCc3ccc(N(CCCl)CCCl)cc3)C(=CC=C3N(CCCCCC(=O)O)c4ccccc4C3(C)C)CCC2)C(C)(C)c2ccccc21` is reported as ~60 h (ester linker cleavage; phosphate buffer; 0.6 µM, pH 7.5, 37 °C, 2.5% DMSO).
The half-life of `CN(C)CCc1c[nH]c2ccccc12` is reported as 1.54 h (human hepatocytes; 3.1 µM, with: 100 nM clorgyline and deprenyl).
With `CC12C(=O)C(C)(C(c3ccccc3)=C1c1ccccc1)C1(Br)C(=O)N(CCNCCN)C(=O)C21.O=C(O)C(F)(F)F.O=C(O)C(F)(F)F` (stereo not shown) the half-life was 32 h (CO release, HPLC; TRIS-sucrose buffer; pH 7.4, 4 to 5 °C).
For `N=C(N)NCCC[C@@H](NC(=O)[C@@H](N)Cc1ccccc1)C(=O)N[C@@H](Cc1ccccc1)C(=O)N[C@@H](CCCCN)C(N)=O`, the half-life was 4.14 h (early Huntington's disease patients, plasma; subcutaneous, 25 mg, day 7).
With `CC(C)(C)[C@H](NC(=O)C(F)(F)F)C(=O)N1C[C@H]2[C@@H]([C@H]1C(=O)N[C@H](C#N)C[C@@H]1CCNC1=O)C2(C)C` the half-life was 0.247 h (mouse liver microsomes; microsomes 0.5 mg/mL).
The half-life of `O=c1ccc2ccccc2o1` is reported as 0.0833 to 0.333 h (metabolic stability; human cryopreserved hepatocytes).
The half-life of `C[C@H](NC(=O)CNC(=O)[C@H](Cc1c[nH]c2ccccc12)NC(=O)CNC(=O)[C@H](C)NC(=O)[C@H](CO)NC(=O)[C@H](CCCNC(=N)N)NC(=O)[C@H](CO)NC(=O)[C@H](CO)NC(=O)CN)C(=O)N[C@@H](CO)C(=O)N[C@@H](CCCNC(=N)N)C(=O)N[C@@H](CO)C(=O)N[C@@H](CO)C(=O)NCC(N)=O` is reported as < 0.5 h (RP-HPLC and LC-MS; human serum; 50% serum, 37 °C).
With `Nc1ccc(OC(=O)NC2CCCCC2)cc1-c1ccccc1` the half-life was 13.1 ± 0.467 h (rat plasma 80% in PBS; 1 µM, pH 7.4, 37 °C).
For `CC[C@H](C)[C@H](NC(=O)[C@H](CCCNC(=N)N)NC(=O)[C@H](CC(C)C)NC(=O)[C@@H](N)Cc1ccccc1)C(=O)N[C@@H](CCCNC(=N)N)C(=O)N1CCC[C@H]1C(=O)N[C@@H](CCCCN)C(=O)O`, the half-life was 0.6 h (rat plasma; with: captopril 10 µM).
With `Cc1ncc2n1-c1ccc(Cl)cc1C(c1ccccc1F)=NC2` the half-life was 4.2 h (healthy male, plasma; oral, 7.5 mg, alone, geometric mean, day 1).
For `CC[C@H](C)[C@@H]1NC(=O)[C@@H]2CSSC[C@H](NC(=O)[C@H](Cc3ccccc3)NC(=O)[C@@H](NC(=O)[C@@H](CO)NC(=O)[C@@H](Cc3ccccc3)NC(=O)[C@@H](CC(C)C)NC(=O)[C@@H]3CCCN3C(=O)[C@@H](CC(C)C)NC(=O)[C@@H](Cc3ccccc3)NC(=O)[C@@H](CCC(=O)O)NC(=O)[C@@H](C)NC(=O)[C@@H](Cc3ccccc3)NC(=O)[C@H](N)C(C)C)CSSC[C@@H](C(=O)N[C@@H](CC(C)C)C(=O)N[C@@H](CC(N)=O)C(N)=O)NC1=O)C(=O)N[C@@H]([C@@H](C)O)C(=O)N[C@@H](CCCNC(=N)N)C(=O)N[C@@H](CCSC)C(=O)N[C@@H](CO)C(=O)N1CCC[C@H]1C(=O)N1CCC[C@H]1C(=O)N[C@@H](CCC(N)=O)C(=O)N2`, the half-life was ≤ 120 h (RP-HPLC; human plasma, 20%; pH 7.4, 37 °C).
For `CCCCCOc1ccc(-c2cc(-c3ccc(C(=O)N[C@H]4C[C@@H](O)[C@@H](O)NC(=O)[C@@H]5[C@@H](O)[C@@H](C)CN5C(=O)[C@H]([C@H](O)CC(N)=O)NC(=O)[C@H]([C@H](O)[C@@H](O)c5ccc(O)c(OS(=O)(=O)O)c5)NC(=O)[C@@H]5C[C@@H](O)CN5C(=O)[C@H]([C@@H](C)O)NC4=O)cc3)no2)cc1`, the half-life was 11.4 h (young infants at least 1000 g, plasma; intravenous infusion, 7 mg/kg/day, day 4, mean, 1 h infusion, repeat dosing).
For `O=C(C[18F])NCCCCCC(=O)Nc1ccccc1`, the half-life was 0.00694 h (rhesus macaque, blood plasma; intravenous, 6.07 mCi, fast phase, first 2.5 min).
For `O=c1[nH]c(Cc2ccccn2)nc2c1cnn2C1CCOCC1`, the half-life was 1.23 h (healthy men, extensive metabolizers, plasma; oral, 25 mg single dose, tablet, geometric mean).
For `Cc1ncc2n1-c1ccc(Cl)cc1C(c1ccccc1F)=NC2`, the half-life was 5.6 h (healthy volunteers, plasma; oral, 8 mg, CYP3A probe, before Echinacea, geometric mean).
`C#CCn1c(C)c(C(=O)C(=O)NC(C)(C)C#C)c(C)c1C(=O)Nc1ccc(F)c(F)c1` has a half-life of 0.317 h (human liver microsomes; 1 µM, with: ritonavir 3 µM).
With `O=S(=O)([O-])[O-].[O]=[V+2]` the half-life was 79.2 h (refers to: total vanadium; human, serum; oral, 25 mg V/day as VOSO4).
With `CC(C)C[C@H](NC(=O)[C@H](CCC(=O)O)NC(=O)[C@H](CCC(=O)O)NC(=O)[C@H](CC(=O)O)NC(=O)[C@H](CCC(=O)O)NC(=O)[C@H](CCC(=O)O)NC(=O)[C@H](CCC(=O)O)NC(=O)[C@@H](N)CC(=O)O)C(=O)O` the half-life was > 2 h (mouse brain homogenate; 1 µM, room temperature).

A few entries again:
For `N=C(N)NCCC[C@@H](NC(=O)[C@@H](N)Cc1ccccc1)C(=O)N[C@@H](Cc1ccccc1)C(=O)N[C@@H](CCCCN)C(N)=O`, the half-life was 4.14 h (early Huntington's disease patients, plasma; subcutaneous, 25 mg, day 7).
With `CC(C)(C)[C@H](NC(=O)C(F)(F)F)C(=O)N1C[C@H]2[C@@H]([C@H]1C(=O)N[C@H](C#N)C[C@@H]1CCNC1=O)C2(C)C` the half-life was 0.247 h (mouse liver microsomes; microsomes 0.5 mg/mL).
